Measurements collected from several papers.
Every numbered part comes from another study and shows a few of its results, in no order.

Study 1
Target: Interferon regulatory factor 5, full length, phosphomimetic (IRF5, Homo sapiens, UniProt Q13568-2, residues 1-514, K96S/S451D/S453D/S456D/S462D)
Method: protein-binding microarray
Form: double-stranded DNA, one strand shown
Sample: in vitro
Concentration: 250 nM
Notes: 60-bp whole probe
Added: salmon DNA 0.4 mg/ml
Relative to: random background probes
Direction: higher = stronger binding
Constant ends, left off below: GCCTAGCAC … GTCTTGATTCGCTTGACGCTGCTG
Sequence | log fluorescence
TTAGGTCTCCTTTTGCTTTAGTGCTAG | 0.208 z-score
TTAGATCTCAGTTTCGATGAGTGCTAG | 8.42 z-score
GACGGTTTCGACTATGGGGACGTGCTA | 5.97 z-score
TCACTTTTTTGTTCCACACTGTGCTAG | 1.33 z-score
GACAGTTTCGGGTTTCGGGACGTGCTA | 9.84 z-score
GACGGTTGCCTACTGCTGACGTGCTAG | -0.342 z-score
GTCGGTCTCCTTCTCCTGACGTGCTAG | 0.262 z-score
CCTAGGGGCGGGGCCAAATGGTGCTAG | 0.797 z-score
GACGGGCTGGGTATCGGGACGTGCTAG | 0.117 z-score
ATTGTTTCCTTCCTCTTTTAGTGCTAG | 1.82 z-score
TCATATCTGTGTTATTAAACTGTGCTA | 1.75 z-score

Study 2
Target: RNA binding protein fox-1 homolog 2, RRM domain, GST-SBP tag (RBFOX2, Homo sapiens, UniProt O43251-10, residues 100-194)
Method: RNA Bind-n-Seq
Form: RNA
Sample: in vitro
Concentration: 365 nM
Notes: natural RNA segment, single round, ends assumed
Relative to: no-protein control
Direction: higher = stronger binding
Constant ends, left off below: GGGAGUUCUACAGUCCGACGAUC … UGGAAUUCUCGGGUGCCAA
Residues (chain): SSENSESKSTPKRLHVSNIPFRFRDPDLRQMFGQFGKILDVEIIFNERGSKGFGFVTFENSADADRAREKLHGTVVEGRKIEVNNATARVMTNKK
Sequence | RBNS enrichment (R)
AAGGUGGCUUCUGCUCCAGAACUCUAUCCACUGUAUUUCCACAUCGUGAGUCAUUUUACUUUAAAAGGGAAAAACAAAUUUGUAGCAACUCUGAAGUAUCAAGAGUUUUA | 0.524
CUGGGGCAGGUGCAUAGCAGUGCAGUGGGAAGGGACAGAGGAGAUCUUAGAAUUUUGAGGAAAAUCUGGGACUUGAGACCUGGAUUCUAACAGACCAACUGCAUGUGUGU | 9.86
AGUUUCAGUGUUAGAUACAGUUUUUUCCACCAUACAUCUGUGCAUUUUCUCUUUAGGUGACUGUUUAAGAAAUUUGUGUGCAUAGUUACUCAGUUUUUAUGAACUGUUGU | 1.47
GAAACUCUUAGCCUGCAGAAUUUAAGACAAUGGCAGUUUUUAUCGUGAUUUGCCUUUGAACUUGGUCCUAUUGAAGUUCACAAUAAGUGGAAAACAAUUUUUUCAGAGAA | 0.511
ACAUUGUUUUCCUCACUGGACAGGACUGACAGGAUUACGGGGGUGGUUCCUUUAACUCUUCACCAAGUCCUCUAGCUGUAUUUCUGAAGGCUCUCACACUUCUUCUGUGA | 0.308
GAUCCGUUGUAAAAAUAUAUAUGUGAAUAUAUAUACAUAACCAGUGCAAUCAGCUUUCAUUUCCUUUUUCUUGAAAACAUACGACUAUAUAGAAAGAAAGACAAUAAGAA | 0.319
GUGUUUCCAGGAGAGCUAGCAUGUUUCUACAAGUGUAGGACUGGAUUGUGGAUCUGCUAUCUAACAAUGUCAUGGAAAAGUGGUAUCUUAAAAUUUUAGGACCGAUUUCA | 3.27
UGGUCCUAUUCAGAGGACUCUUACCACGACGUUUCUGUUCUACACUUGGGUGGAGACCAGUUGACCAUAGAGCAUUUGCAGAGCCUCAUUGUUUGAUUUCUUGUGACUAU | 0.514

Study 3
Target: Ras GTPase-activating protein-binding protein 1, full length (G3BP1, Homo sapiens, UniProt Q13283)
UniProt Q13283, sequence (whole entry, looked up): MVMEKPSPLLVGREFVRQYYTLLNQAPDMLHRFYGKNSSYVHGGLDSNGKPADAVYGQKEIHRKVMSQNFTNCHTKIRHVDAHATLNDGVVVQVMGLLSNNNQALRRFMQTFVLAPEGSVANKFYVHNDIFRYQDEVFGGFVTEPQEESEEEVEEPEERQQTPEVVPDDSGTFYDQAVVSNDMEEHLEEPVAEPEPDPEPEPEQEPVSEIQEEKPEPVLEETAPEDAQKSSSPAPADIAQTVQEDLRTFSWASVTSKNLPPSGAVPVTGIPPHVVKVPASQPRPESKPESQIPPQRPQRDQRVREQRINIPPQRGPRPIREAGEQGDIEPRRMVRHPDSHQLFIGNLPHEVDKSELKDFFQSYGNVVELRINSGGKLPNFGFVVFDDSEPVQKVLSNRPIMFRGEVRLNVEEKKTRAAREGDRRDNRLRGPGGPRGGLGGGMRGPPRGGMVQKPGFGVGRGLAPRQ
Method: RNA Bind-n-Seq
Form: RNA
Sample: in vitro
Concentration: 200 nM
Notes: whole 134-nt RNA, ends assumed
Added: 150 mM KCl
Relative to: input library
Direction: higher = stronger binding
Constant ends, left off below: GGGAGUUCUACAGUCCGACGAUC … UGGAAUUCUCGGGUGUCAAGG
Sequence | log2 enrichment
CACAGACAACACGCCCCCACACAGACACAGAGGGAAGGGGUUGGGAUGGGGACAGGGUGCACAGCAGGGCGGGGUAGGACCCCAGCCCCU | 2.12
UGGGAGGUGGAUUUUGUUUAUUUUUUUAGCUCAUUUCCAGGGGUGGGAAUUUUUUUUUAAUAUGUGUCAUGAAUAAAGUUGUAUUUGAAA | -0.0186
UUUCACUUCCAGCCAGCUGUGAAGAAGGUGAGCUUGCCUUCCAUCUUCCCCCCUAUCCGCCGCGUAUCUCCGUCGUCUGCAAGCGCGUGA | 0.148
AAGUCCUGUGCUACACAUCGUAUGUACCGAAUCGGGAAAAGGAAAAGGGGAAAAGGGAAAGUAUUAUGUUACGCCGUUCGGAUCUGCACU | -0.465
CCUGUGCUACACAUCGUAUGUACCGAAUCGGGGUUUUUUUGGUUUUUUUGGGUUUUUUUGGAAAGUAUUAUGUUACGCCGUUCGGAUCUG | -0.766
UCCUGUGCUACACAUCGUAUGUACCGAAUCGGGGAAAAAGGGGUGGGGUUUUUUUGGGGAAAGUAUUAUGUUACGCCGUUCGGAUCUGCA | 0.634

Single results of other studies
Molecule | target | assay | test system | setting | how to read | measurement | value
PhoQ, residues 284 288 289 292 302 303 SVHLDV | PhoP, residues 12 14 15 18 19 LFHKL (Escherichia coli, UniProt P23836) | Sort-seq, item: YFP reporter | E. coli | PhoQ-PhoP variant library, added: 10 µM Mg2+ | relative to: high Mg2+ state, higher = stronger signaling | fold induction | 1.35

For quick reference, copied from above (study 1):
Sequence | log fluorescence
GACAGTTTCGGGTTTCGGGACGTGCTA | 9.84 z-score
TTAGATCTCAGTTTCGATGAGTGCTAG | 8.42 z-score
